Measurements gathered from unrelated publications.
Every numbered part comes from another study and shows a few of its results, in no order. Changes are numbered by the printed parent chain.

Series 1
Target: Sal-like protein 4, full length isoform B (SALL4, Homo sapiens, UniProt Q9UJQ4-2, residues 1-616)
Method: universal PBM
Form: double-stranded DNA, one strand shown
Medium: in vitro
Concentration: not given
Notes: 8-mer, flanks averaged, mean of replicates
Direction: higher = stronger binding
Residues (chain): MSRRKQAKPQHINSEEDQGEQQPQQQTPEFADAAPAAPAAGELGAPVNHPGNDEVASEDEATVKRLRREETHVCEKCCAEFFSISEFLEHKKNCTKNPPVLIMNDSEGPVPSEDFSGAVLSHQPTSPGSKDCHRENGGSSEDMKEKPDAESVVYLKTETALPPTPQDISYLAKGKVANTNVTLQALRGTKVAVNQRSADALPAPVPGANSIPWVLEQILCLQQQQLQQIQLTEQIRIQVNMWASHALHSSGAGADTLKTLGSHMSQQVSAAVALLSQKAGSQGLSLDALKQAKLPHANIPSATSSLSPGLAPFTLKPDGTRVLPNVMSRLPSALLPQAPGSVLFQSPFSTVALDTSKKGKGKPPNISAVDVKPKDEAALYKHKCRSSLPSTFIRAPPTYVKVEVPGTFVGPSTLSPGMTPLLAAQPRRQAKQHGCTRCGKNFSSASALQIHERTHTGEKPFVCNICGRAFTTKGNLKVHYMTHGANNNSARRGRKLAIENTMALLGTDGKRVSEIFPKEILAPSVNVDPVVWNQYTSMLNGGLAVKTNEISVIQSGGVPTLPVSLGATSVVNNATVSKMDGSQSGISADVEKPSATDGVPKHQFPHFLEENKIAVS
Strand | E-score
AACCGCAT | 0.108
ATTATGAG | 0.341
CGATAGTA | 0.0207
TCGCACAA | -0.0434
AAGCCAAC | 0.0856
AGATCCGC | -0.144
ACGTAAGC | -0.141
CTACCCAA | 0.058
ATGCTATC | 0.102
CGCCCGGA | -0.268
GGTACAGA | 0.0735
ACGTGTCA | 0.0778

Series 2
Target: Centromere-binding protein 1, full length, His-tagged (CBF1, Saccharomyces cerevisiae, UniProt P17106, residues 1-351)
UniProt P17106, sequence (whole entry, looked up): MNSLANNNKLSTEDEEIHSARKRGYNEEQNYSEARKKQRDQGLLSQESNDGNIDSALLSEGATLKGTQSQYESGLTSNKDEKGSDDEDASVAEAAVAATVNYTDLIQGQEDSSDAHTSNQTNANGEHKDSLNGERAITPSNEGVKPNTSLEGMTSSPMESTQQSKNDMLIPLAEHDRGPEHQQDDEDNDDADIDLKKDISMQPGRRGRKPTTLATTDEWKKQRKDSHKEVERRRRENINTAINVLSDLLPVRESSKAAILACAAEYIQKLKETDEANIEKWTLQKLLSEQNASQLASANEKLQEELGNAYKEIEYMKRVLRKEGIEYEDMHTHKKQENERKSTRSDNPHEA
Method: competition protein-binding microarray
Form: double-stranded DNA, one strand shown
Medium: in vitro
Concentration: 2 µM
Notes: whole 60-bp probe, lowest competitor level
Added: Pho4 competitor, 0.05 µM
Direction: higher = stronger binding
All sequences stand within: … GTCTTGATTCGCTTGACGCTGCTG
Strand | fluorescence intensity [a.u.]
TTTCGGTTTTTATCGCACGTTTCTTTTTGGTGAGCG | 150
TACCAATCGATTTGTCACCTGCAAAAGGACCTGGAT | 107
ATTATCAATTGCCATCACGTGCAAACCGAAGAAATG | 6470
CTTCTGTAAATTTGGTTTGTGGGTGGACGCGCCCCG | 91.1
CATACCCAACCTTGTCACACGACTTAAGATATTTGT | 141
ACCAATCACTTTTTCATTTTTTTTCAAAAGCTCATC | 87.4
CATACCCAACCTTGTCACTTAACTTAAGATATTTGT | 85.7

Series 3
Target: CCND2, cyclin fold, Cln2 fusion (human)
Method: yeast growth competition, sequencing
Medium: yeast
Notes: weak parent motif
Baseline: not given
Direction: higher = stronger binding
Starting sequence: RB1 docking peptide (human); PKPLKKLRFDIEG; partner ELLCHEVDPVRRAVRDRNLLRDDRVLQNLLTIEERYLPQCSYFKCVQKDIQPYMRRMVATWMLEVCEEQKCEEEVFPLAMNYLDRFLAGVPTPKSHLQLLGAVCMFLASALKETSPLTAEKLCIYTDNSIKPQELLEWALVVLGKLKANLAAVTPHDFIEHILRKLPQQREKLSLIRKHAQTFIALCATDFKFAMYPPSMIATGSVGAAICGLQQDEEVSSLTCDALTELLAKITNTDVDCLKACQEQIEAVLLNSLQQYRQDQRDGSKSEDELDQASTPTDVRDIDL
Change | normalised enrichment score
F9W | 0.224
K6E | -0.165
L4R | 0.25
G13H | 0.387
E12I | 0.398

Series 4
Substance: PhoQ, residues 284 288 289 292 302 303 SSLVEF
Method: Sort-seq
Refers to: YFP reporter
Medium: E. coli
Notes: PhoQ-PhoP variant library
Added: 10 µM Mg2+
Baseline: high Mg2+ state
Direction: higher = stronger signaling
target | fold induction
PhoP, residues 12 14 15 18 19 TQAML (Escherichia coli, UniProt P23836) | 13.5
PhoP, residues 12 14 15 18 19 NQCAL (Escherichia coli, UniProt P23836) | 3.87
PhoP, residues 12 14 15 18 19 LHTVL (Escherichia coli, UniProt P23836) | 12.6

Some of these lines once more (series 2):
Strand | fluorescence intensity [a.u.]
ATTATCAATTGCCATCACGTGCAAACCGAAGAAATG | 6470
CTTCTGTAAATTTGGTTTGTGGGTGGACGCGCCCCG | 91.1
CATACCCAACCTTGTCACACGACTTAAGATATTTGT | 141
